Results collected from several papers.
Each line is one published result; not all experiments were run side by side. Numbers after ± are the reported error.
AURKA: Aurora kinase A (AURKA, Homo sapiens, UniProt O14965)
Chain of UniProt O14965 (whole entry, looked up): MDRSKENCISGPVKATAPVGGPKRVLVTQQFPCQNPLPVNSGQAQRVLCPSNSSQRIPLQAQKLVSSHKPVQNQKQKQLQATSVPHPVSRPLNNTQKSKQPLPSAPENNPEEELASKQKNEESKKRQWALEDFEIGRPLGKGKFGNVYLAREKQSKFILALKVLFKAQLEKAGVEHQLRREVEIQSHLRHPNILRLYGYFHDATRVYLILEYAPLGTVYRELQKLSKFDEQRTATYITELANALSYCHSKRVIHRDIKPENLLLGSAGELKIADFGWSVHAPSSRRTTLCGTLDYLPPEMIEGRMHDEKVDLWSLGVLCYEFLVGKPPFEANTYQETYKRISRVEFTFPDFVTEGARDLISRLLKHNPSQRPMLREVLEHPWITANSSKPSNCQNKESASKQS
Chain of UniProt Q9HC29 (whole entry, looked up): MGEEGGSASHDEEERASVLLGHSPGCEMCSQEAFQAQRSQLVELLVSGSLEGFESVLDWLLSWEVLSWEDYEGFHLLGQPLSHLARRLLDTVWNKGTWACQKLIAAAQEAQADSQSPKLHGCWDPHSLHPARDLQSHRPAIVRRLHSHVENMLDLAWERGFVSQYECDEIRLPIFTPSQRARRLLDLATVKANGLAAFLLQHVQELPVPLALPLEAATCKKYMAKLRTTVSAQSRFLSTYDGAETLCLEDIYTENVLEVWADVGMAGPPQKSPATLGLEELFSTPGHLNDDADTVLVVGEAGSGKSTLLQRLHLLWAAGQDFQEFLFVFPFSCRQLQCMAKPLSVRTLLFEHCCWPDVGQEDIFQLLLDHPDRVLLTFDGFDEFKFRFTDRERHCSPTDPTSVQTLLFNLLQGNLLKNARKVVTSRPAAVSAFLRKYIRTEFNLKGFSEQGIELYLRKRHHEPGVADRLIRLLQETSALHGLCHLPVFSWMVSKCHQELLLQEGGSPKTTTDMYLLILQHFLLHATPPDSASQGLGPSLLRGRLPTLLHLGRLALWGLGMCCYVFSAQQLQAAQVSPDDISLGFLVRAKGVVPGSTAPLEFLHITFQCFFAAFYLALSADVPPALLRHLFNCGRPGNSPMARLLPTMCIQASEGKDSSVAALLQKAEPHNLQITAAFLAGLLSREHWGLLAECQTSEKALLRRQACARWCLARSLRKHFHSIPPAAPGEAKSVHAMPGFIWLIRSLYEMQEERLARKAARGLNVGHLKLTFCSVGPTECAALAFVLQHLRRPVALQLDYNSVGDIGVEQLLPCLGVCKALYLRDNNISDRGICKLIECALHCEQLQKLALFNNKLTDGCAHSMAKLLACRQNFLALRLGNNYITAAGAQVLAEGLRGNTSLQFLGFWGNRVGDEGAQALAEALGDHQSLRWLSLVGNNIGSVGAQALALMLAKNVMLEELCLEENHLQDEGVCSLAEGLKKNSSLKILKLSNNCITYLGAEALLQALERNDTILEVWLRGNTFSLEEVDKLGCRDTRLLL
Chain of UniProt A2RI47 (whole entry, looked up): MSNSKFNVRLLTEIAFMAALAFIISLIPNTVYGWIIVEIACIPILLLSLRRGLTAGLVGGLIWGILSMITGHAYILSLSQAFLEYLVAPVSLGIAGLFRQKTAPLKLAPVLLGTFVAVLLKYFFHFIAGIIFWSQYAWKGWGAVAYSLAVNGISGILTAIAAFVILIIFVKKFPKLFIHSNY
Chain of UniProt Q9RUB5 (whole entry, looked up): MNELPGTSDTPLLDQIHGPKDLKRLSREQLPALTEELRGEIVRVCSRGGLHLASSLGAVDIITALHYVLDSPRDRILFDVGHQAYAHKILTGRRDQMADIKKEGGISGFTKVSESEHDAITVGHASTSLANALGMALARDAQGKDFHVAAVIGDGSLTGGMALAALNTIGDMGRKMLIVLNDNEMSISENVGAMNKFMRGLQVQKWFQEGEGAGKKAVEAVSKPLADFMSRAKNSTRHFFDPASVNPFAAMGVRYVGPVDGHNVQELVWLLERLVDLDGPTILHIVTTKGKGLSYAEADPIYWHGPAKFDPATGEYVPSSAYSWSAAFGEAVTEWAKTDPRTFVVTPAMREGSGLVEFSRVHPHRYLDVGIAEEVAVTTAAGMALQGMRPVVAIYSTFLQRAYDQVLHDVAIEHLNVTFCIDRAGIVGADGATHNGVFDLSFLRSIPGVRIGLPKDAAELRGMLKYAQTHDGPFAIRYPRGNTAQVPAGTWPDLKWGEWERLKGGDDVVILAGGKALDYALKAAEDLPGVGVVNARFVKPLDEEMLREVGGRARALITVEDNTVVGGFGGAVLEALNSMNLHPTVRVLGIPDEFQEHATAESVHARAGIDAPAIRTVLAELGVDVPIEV
Chain of UniProt P51449 (whole entry, looked up): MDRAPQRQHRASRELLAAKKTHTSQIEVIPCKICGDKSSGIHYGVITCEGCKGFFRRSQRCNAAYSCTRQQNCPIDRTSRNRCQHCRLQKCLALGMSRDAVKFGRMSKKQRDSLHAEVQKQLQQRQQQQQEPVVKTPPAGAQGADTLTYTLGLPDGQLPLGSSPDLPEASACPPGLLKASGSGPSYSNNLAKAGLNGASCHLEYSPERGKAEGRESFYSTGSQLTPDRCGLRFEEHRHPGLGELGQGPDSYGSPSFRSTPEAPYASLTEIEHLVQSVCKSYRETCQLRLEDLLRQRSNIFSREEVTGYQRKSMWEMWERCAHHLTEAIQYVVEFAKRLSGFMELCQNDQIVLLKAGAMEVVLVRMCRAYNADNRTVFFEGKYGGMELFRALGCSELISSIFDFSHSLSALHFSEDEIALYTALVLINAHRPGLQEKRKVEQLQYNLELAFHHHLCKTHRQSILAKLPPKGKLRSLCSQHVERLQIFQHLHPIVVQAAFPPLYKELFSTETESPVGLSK
Chain of UniProt P08172 (whole entry, looked up): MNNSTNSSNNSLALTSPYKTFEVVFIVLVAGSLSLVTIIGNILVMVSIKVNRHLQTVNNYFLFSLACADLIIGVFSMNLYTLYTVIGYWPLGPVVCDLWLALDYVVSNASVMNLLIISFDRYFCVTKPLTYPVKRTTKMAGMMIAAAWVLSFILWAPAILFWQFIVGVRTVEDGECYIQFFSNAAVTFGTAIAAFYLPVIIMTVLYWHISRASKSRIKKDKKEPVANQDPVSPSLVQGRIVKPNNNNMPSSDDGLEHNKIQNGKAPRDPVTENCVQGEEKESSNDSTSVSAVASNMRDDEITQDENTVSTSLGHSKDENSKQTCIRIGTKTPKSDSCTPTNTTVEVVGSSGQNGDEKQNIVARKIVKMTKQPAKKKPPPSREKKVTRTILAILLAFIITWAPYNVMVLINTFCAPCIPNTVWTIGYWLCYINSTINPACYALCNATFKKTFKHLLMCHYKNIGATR
Chain of UniProt P19438 (whole entry, looked up): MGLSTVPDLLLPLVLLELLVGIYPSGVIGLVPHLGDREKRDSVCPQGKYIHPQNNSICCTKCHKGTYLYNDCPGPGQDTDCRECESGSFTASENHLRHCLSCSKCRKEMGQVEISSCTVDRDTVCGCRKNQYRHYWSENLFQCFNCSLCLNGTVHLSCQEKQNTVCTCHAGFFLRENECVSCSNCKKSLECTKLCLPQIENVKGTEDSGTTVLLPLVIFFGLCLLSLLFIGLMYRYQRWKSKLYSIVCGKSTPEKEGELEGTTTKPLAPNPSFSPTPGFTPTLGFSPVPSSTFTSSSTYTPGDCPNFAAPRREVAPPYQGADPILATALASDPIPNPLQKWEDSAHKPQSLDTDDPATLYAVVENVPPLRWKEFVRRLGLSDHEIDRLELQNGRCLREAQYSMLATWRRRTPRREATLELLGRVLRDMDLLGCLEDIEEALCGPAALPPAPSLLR
Chain of UniProt Q16531 (whole entry, looked up): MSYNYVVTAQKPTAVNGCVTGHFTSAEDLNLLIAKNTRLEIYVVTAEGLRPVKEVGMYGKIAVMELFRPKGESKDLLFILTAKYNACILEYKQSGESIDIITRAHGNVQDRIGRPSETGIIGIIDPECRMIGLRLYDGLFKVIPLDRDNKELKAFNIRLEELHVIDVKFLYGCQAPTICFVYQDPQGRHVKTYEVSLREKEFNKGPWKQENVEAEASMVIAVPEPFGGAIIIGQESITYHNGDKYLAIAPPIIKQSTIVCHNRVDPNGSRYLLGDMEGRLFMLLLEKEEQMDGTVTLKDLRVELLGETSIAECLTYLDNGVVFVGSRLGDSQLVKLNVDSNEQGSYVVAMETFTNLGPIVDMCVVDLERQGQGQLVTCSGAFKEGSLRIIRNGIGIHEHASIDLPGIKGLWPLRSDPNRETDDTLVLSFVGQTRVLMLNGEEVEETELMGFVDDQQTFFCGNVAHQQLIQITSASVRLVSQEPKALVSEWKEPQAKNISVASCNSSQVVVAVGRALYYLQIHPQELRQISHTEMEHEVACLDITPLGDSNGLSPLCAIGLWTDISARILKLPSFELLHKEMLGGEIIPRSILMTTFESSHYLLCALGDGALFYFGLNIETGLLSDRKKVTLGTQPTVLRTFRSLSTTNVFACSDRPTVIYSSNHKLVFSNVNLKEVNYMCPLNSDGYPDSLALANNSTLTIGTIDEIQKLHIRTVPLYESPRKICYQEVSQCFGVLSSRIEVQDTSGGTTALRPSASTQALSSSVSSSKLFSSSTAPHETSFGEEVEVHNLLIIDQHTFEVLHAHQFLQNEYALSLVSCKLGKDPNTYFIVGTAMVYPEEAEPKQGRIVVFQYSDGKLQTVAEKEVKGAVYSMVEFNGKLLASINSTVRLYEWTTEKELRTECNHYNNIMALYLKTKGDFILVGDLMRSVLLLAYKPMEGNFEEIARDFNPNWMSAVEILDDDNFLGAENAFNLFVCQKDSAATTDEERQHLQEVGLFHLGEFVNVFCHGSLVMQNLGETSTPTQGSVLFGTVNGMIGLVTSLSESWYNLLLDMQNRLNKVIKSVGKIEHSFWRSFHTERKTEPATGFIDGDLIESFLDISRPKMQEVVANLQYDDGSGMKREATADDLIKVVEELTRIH

Structure (SMILES) = Cc1ncc(Cc2csc(C=NNC(=O)[C@@H](N)Cc3c[nH]c4ccccc34)c2C)c(N)n1 (mixture of isomers); target = Thiamine transporter ThiT (Lactococcus lactis subsp. cremoris, UniProt A2RI47); assay = binding, ITC; Kd = 44.5 µM
Structure (SMILES) = CCOc1cccc([C@H]2CC(=O)Nc3c2c(C)nn3-c2ccc3nncn3n2)c1; target = DNA damage-binding protein 1 (DDB1, Homo sapiens, UniProt Q16531); assay = binding, SPR; Kd = > 73 µM
Structure (SMILES) = [3H]CC([3H])C(=O)NCc1cc(C(=O)NCCN2CCC(N3CCC(n4c(=O)[nH]c5ccccc54)CC3)CC2)cc(C(=O)NCCN2CCN(CCCCC3CCN(CC(=O)N4c5ccccc5NC(=O)c5ccccc54)CC3)CC2)c1 (stereo not drawn); target = Muscarinic acetylcholine receptor M2 (CHRM2, Homo sapiens, UniProt P08172); assay = binding, radioligand; Kd = 8.1e-05 µM
Structure (SMILES) = COC(=O)Nc1ccc2c(c1)c(Cc1ccc(C(=O)NS(=O)(=O)c3ccc(C(F)(F)F)cc3)cc1OC)cn2C; target = Tumor necrosis factor receptor superfamily member 1A, extracellular domain (Homo sapiens, UniProt P19438); assay = binding, 19F NMR; test system = PBS; setting = pH 7.4; Kd = 10 µM
Structure (SMILES) = COc1cc2c(c(OC)c1OC)-c1c(cc3c(c1OC)OCO3)CC(C)C(C)(O)C2OC(=O)c1ccccc1 (stereo not drawn); target = Taste receptor type 1 member 3 (TAS1R3, Homo sapiens, UniProt Q7RTX0); assay = binding; test system = 0.5% DMSO; Kd = 0.000902 µM
Structure (SMILES) = COC(=O)CC[C@@H](NC(=O)[C@H](C)NC(=O)[C@@H](C)O[C@H]1[C@H](O)[C@@H](CN)OC(O)[C@@H]1NC(C)=O)C(N)=O (stereo partly drawn); target = Nucleotide-binding oligomerization domain-containing protein 2 (NOD2, Homo sapiens, UniProt Q9HC29); assay = binding; setting = pH 6.5; Kd = 0.002 to 0.01 µM
Structure (SMILES) = Cc1ncc(/C=N/NC(=O)c2cc3c(s2)CCCC3)cn1; target = 1-deoxy-D-xylulose-5-phosphate synthase (dxs, Deinococcus radiodurans, UniProt Q9RUB5); assay = binding, SPR; Kd = 55 µM
Structure (SMILES) = Cc1oc2c(O)c3c(c(O)c2c1C(=O)N1CCC(N)C1)C(=O)c1ccccc1C3=O (stereo not drawn); target = AURKA; assay = binding, tryptophan fluorescence quenching; setting = pH 7.5, 25 °C, AurA 3.0 µM; Kd = 61 ± 13.7 µM
Structure (SMILES) = N=C(NO)NCCC[C@H](N)C(=O)O; target = Arginase (Schistosoma mansoni, UniProt Q6WVP6); assay = isothermal titration calorimetry; setting = pH 8.5, second weaker binding site; Kd = 13 µM
Structure (SMILES) = C[C@H](CCC(=O)NCCc1ccc(-c2ccccc2)cc1)[C@H]1CC[C@H]2[C@@H]3CC[C@@H]4CC(=O)CC[C@]4(C)[C@H]3CC[C@]12C; target = Nuclear receptor ROR-gamma (RORC, Homo sapiens, UniProt P51449); assay = binding, MST; Kd = 0.0874 µM
Structure (SMILES) = Cc1[nH]c2c(O)c3c(c(O)c2c1C(=O)NC1CCNCC1)C(=O)c1ccccc1C3=O; target = AURKA; assay = binding, tryptophan fluorescence quenching; setting = pH 7.5, 25 °C, AurA 3.0 µM; Kd = 35.6 ± 4.4 µM
Structure (SMILES) = CN(C)CCNC(=O)c1cccc2c(NCCCCc3c(N)nc(N)nc3N)c3ccccc3nc12; target = RNA with C–C mismatch; assay = binding, ITC; setting = 25 °C, 1; Kd = 0.77 ± 0.28 µM

Repeated from above:
Structure (SMILES) = Cc1oc2c(O)c3c(c(O)c2c1C(=O)N1CCC(N)C1)C(=O)c1ccccc1C3=O (stereo not drawn); target = AURKA; assay = binding, tryptophan fluorescence quenching; setting = pH 7.5, 25 °C, AurA 3.0 µM; Kd = 61 ± 13.7 µM
